Results of several laboratories.
Parts stem from different laboratories: compare values within a part only. Positions count from the first letter of the parent shown.

Set 1
Target: ABI1, truncated, D143A, DHFR fusion (Arabidopsis thaliana)
Method: DHFR PCA, deep sequencing
Sample: yeast
Setting: methotrexate growth selection, single substitutions
Added: (+)-ABA 200 µM
Relative to: wild-type fitted maximum
Direction: higher = stronger binding
Parent: PYL1, truncated, DHFR fusion (Arabidopsis thaliana); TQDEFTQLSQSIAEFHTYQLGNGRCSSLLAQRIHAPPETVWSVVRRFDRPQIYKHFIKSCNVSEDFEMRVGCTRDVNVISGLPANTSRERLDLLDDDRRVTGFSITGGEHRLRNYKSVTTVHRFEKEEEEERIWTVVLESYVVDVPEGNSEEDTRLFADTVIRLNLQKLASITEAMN; partner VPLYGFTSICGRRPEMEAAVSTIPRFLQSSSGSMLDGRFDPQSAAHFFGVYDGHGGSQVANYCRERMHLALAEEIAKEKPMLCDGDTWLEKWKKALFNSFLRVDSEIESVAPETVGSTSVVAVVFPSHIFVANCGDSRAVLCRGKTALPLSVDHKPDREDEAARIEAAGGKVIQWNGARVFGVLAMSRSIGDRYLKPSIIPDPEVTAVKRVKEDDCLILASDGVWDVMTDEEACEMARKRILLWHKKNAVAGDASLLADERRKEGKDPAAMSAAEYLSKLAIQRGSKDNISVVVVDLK
| Variant | relative binding score |
| --- | --- |
| L29S | 77.9% |
| S26A | 99.9% |
| L169D | -9.48% |
| E152R | 89.7% |
| I12F | 64.5% |
| E38A | 94.1% |
| H55A | 104% |
| G102E | 31% |
| T39R | 99.4% |
| V143D | 5.12% |
| V40H | 26.9% |
| D96V | 45.2% |
| L112S | -12.6% |

Set 2
Target: CCND2, cyclin fold, Cln2 fusion (human)
Method: yeast growth competition, sequencing
Sample: yeast
Setting: weak parent motif
Relative to: not given
Direction: higher = stronger binding
Parent: AKAP12 docking peptide (human); GSPLKKLFTSTGL; partner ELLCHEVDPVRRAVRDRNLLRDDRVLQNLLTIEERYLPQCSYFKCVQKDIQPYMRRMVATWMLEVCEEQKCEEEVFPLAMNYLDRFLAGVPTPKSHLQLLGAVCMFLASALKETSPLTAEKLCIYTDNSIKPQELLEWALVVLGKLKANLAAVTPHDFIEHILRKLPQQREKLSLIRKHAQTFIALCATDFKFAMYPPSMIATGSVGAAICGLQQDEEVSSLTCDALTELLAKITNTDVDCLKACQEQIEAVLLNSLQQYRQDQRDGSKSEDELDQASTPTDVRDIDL
| Variant | normalised enrichment score |
| --- | --- |
| GSALKKLFTSTGL [P3A] | 0.226 |
| GSPLKKLATSTGL [F8A] | -0.0783 |
| GAPLKKLFTSTGL [S2A] | 0.498 |
| GSPLRKLFTSTGL [K5R] | 0.207 |
| GSPLKKLFASTGL [T9A] | -0.0393 |
| GSPLKKAFTSTGL [L7A] | -0.0887 |
| GSPLKALFTSTGL [K6A] | -0.026 |

Set 3
Target: Hepatocyte nuclear factor 3-alpha (Foxa1, Mus musculus, UniProt P35582, residues 1-468, full length assumed)
UniProt P35582, sequence (whole entry, looked up): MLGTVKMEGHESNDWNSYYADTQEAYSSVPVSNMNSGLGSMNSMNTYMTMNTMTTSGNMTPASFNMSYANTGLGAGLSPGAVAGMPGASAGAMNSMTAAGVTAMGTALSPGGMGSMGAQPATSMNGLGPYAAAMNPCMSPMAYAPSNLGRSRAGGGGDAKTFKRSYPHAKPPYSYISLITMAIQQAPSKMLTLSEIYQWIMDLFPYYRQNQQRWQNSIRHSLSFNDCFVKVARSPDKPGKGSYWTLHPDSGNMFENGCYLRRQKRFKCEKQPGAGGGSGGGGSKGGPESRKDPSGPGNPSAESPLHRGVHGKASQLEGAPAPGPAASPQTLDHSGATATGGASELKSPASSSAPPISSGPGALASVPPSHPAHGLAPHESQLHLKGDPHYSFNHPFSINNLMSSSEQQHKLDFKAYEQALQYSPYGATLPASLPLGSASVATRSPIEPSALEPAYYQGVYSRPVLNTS
Method: EMSA with sequencing
Form: double-stranded DNA, one strand shown
Sample: in vitro
Tested at: 10 and 20 nM
Setting: whole designed probe, mean of two concentrations, ends assumed
Relative to: negative control set to 0
Direction: higher = stronger binding
| Sequence | normalised bound fraction [ratio] |
| --- | --- |
| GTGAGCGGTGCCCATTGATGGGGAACGATTCCAGCCAGCAGAATAGGAATTTCAGAATACGATAAGGAGATGTTAAGGAAGGTCAGGCAGTAAAAAGAGGTTTCCAGACTCATGTGGTTTGTTGACTTAGCAAGTCAGGGAGAAGTCAATTGTTTGCTCTCCTGTTTTACAGTCTTTAGGTGTGGGCCAGCCCAGGGCCATTGATAGTCATTTTAGCCATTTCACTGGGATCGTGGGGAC | 0.452 |
| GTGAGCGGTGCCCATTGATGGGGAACATCTTCCCCCTCTTCCTTGCCCCACCAGCTCACCTACGGGGGTTATTTGCACAAAGGAAAATAAATAAAGCCGGCATTCGTTAACCCTCTTCACGCGCATACTGCTGTTTGCTCTGGATCTAACATGGTCCTTTGGCGACGCCAGGCTCCGGGAGAGCAAAGCACCGTGTCAGGGCCATGATCCGGGCTCGCCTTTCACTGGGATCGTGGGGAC | 0.391 |
| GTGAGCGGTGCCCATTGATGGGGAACGCATGAGCCGCATTGCCCAGCAAAAGCCTCTAAGTGGTGATTTGCTGTTTGGCCTGAGAGTAATTTGGAGGCTGTGGCTGAGTCAGCTTCTCTTGTTGACTGAGCAGTTGACTCTTTTGACCTTCATTGTTCCATAATTCCTTATGAAACTCTTCTGAAGCACTGAGAACCATCGACGGATCATATCAGCATGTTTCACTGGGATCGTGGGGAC | 0.0236 |
| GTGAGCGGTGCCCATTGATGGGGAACATCTTCCCCCTCTTCCTTGCCCCACCAGCTCACCTTCCCGGGTTATTTGCAGATAGGAAAATAAATAAAGCCGGCATTCGTTAACGATGAATCATGGCATACTGCTGTTTGCTCTGGATCTAACATGGTCCTTTGGCGACGCCAGGCTCCGGGAGAGCAAAGCACCGTGTCAGGGCCATGATCCGGGGTGGCCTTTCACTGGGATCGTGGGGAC | 0.361 |
| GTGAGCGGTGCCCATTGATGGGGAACATCTTCCCCCTCTTCCTTGCCCCACCAGCTCACCTTCCCGGGTCAAAGTAAACAAGTGTTTACTTTGAAGCCGGCATTCGTTAACCCTCTTCACGCGCATACTGCACATTGGTCTGGATGAATCATGGTCCTTTGGCGACGCCAGGCTCCGGGAGAGCAAAGCACCGTGTCAGGGCCATGATCCGGGGTGGCCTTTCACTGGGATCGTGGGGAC | 0.436 |
| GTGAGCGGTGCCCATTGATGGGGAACGTGTGCTAGCCTGTGAGTTTTTCTCTCCAACTAGCCTGGGTACTCAGGAAAGTGAGATCAACTTCTGGGTGGCCTGACTTGGGTGTAGCCTGTGCAAATAGGGGAGACAGTTGACATACAGATGAAAGGGGAGATGGGAAGCCATACAGAGGAAGGAGAAGATCAGGAACCAGAGATAAGATAATTCTGTAAATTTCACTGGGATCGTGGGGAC | 0.241 |
| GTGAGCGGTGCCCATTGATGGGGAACAACGGGACTCTGGCTGGGCCAGGGCTCCTCGCCCAGGATGCCCGGGGAGAGGCCCCGTGTGAGGGCCTCACTCTGTGGGCTTAGGAATCCCAGAGTAAACAGATCAAGTTACCCGTGTCAGCCGGGCCGTCCACAACAGGCAGCCGCAGCGATTGAAGATGGGAATGTTCTTCTCAGAGATGACTCAGCTACTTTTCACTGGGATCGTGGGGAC | 0.289 |
| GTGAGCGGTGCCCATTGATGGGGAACATCTCCCCCTTCCCGTCTCCCTTACCAGCTCACCTTCCCGGGTTATTTGCAGATAGGAAAATAAATAAAGCCGGCATTCGTTAACCCTCTTCTGGCGCAAACTGCTGTTTGCTCTGGATGAATCATGGTCCTTTGGCGACGCCAGGCTCCGGGAGAGCAAAGCACCGTGTCAGGGCCATGATCCGGGGTGGCCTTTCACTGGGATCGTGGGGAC | 0.331 |

Mixed results
| Substance | target | test | system | setting | how to read | quantity | value |
| --- | --- | --- | --- | --- | --- | --- | --- |
| PhoQ, residues 284 288 289 292 302 303 GNNTDL | PhoP, residues 12 14 15 18 19 LHHSG (Escherichia coli, UniProt P23836) | Sort-seq, refers to: YFP reporter | E. coli | PhoQ-PhoP variant library, added: 10 µM Mg2+ | relative to: high Mg2+ state, higher = stronger signaling | fold induction | 1.35 |

For quick reference, copied from above (set 3):
| Sequence | normalised bound fraction [ratio] |
| --- | --- |
| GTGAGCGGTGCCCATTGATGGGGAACATCTTCCCCCTCTTCCTTGCCCCACCAGCTCACCTTCCCGGGTCAAAGTAAACAAGTGTTTACTTTGAAGCCGGCATTCGTTAACCCTCTTCACGCGCATACTGCACATTGGTCTGGATGAATCATGGTCCTTTGGCGACGCCAGGCTCCGGGAGAGCAAAGCACCGTGTCAGGGCCATGATCCGGGGTGGCCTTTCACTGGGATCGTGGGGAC | 0.436 |
| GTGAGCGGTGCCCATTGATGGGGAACGATTCCAGCCAGCAGAATAGGAATTTCAGAATACGATAAGGAGATGTTAAGGAAGGTCAGGCAGTAAAAAGAGGTTTCCAGACTCATGTGGTTTGTTGACTTAGCAAGTCAGGGAGAAGTCAATTGTTTGCTCTCCTGTTTTACAGTCTTTAGGTGTGGGCCAGCCCAGGGCCATTGATAGTCATTTTAGCCATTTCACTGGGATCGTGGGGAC | 0.452 |
| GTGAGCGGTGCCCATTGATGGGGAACATCTCCCCCTTCCCGTCTCCCTTACCAGCTCACCTTCCCGGGTTATTTGCAGATAGGAAAATAAATAAAGCCGGCATTCGTTAACCCTCTTCTGGCGCAAACTGCTGTTTGCTCTGGATGAATCATGGTCCTTTGGCGACGCCAGGCTCCGGGAGAGCAAAGCACCGTGTCAGGGCCATGATCCGGGGTGGCCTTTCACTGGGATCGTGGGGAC | 0.331 |
| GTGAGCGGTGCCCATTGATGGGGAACGCATGAGCCGCATTGCCCAGCAAAAGCCTCTAAGTGGTGATTTGCTGTTTGGCCTGAGAGTAATTTGGAGGCTGTGGCTGAGTCAGCTTCTCTTGTTGACTGAGCAGTTGACTCTTTTGACCTTCATTGTTCCATAATTCCTTATGAAACTCTTCTGAAGCACTGAGAACCATCGACGGATCATATCAGCATGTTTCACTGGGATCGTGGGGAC | 0.0236 |
